Measurements of several laboratories.
Every numbered part comes from another study and shows a few of its results, in no order. Substitutions count along the parent as printed.

Study 1
Target: CCNB3, cyclin fold, Cln2 fusion (human)
Technique: yeast growth competition, sequencing
Sample: yeast
Setting: weak parent motif
Baseline: not given
Reading: higher = stronger binding
Parent: CDC25A docking peptide (human); PPHRRRLLFACSP; partner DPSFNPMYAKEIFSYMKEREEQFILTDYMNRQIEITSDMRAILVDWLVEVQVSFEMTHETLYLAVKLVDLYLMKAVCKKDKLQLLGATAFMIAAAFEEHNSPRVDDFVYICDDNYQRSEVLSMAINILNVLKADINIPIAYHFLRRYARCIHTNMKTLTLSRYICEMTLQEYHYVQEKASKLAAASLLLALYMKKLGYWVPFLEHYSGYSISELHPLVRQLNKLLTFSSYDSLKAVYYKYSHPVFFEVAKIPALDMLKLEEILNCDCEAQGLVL
| Substitution | normalised enrichment score |
| --- | --- |
| L7K | 0.255 |
| R6V | 0.344 |
| L8E | -0.0222 |
| H3Q | 0.257 |
| L7A | 0.432 |
| C11K | -0.299 |
| A10Q | 0.234 |
| L7T | 0.571 |
| P13I | 0.296 |
| A10R | 0.178 |
| L7S | -0.14 |
| R6E | 0.247 |
| R5D | -0.0663 |
| A10P | 0.118 |
| R5C | 0.141 |
| R6M | 0.414 |
| R6G | 0.0843 |
| L8A | 0.0956 |
| P1W | 0.149 |
| C11E | 0.135 |
| H3N | 0.152 |
| R6L | 0.334 |
| L8Q | -0.436 |
| L7Y | 0.135 |
| R5M | 0.485 |

Study 2
Target: Histone acetyltransferase KAT6A, both winged helices, GST fusion (KAT6A, Homo sapiens, UniProt Q92794, residues 1-181)
Technique: protein binding microarray
Molecule type: double-stranded DNA, one strand shown
Sample: in vitro
Concentration: not given
Setting: 8-mer, flanks averaged, mean of 2 arrays, mostly near background
Baseline: not given
Reading: higher = stronger binding
Construct (chain): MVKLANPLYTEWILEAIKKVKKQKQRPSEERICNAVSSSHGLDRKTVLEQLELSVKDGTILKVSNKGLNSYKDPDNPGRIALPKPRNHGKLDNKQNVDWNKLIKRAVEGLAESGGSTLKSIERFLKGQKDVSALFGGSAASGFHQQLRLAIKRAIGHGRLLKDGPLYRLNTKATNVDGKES
| Strand | E-score |
| --- | --- |
| ACTAGCGC | 0.291 |
| ACCAGTGC | -0.0698 |
| AGAGCGTG | 0.186 |
| CACTCTCC | -0.0698 |
| GACCGGTA | 0.13 |
| AGCGCTAC | 0.33 |
| CGAGATAC | 0.0268 |
| ATTTATGA | 0.0385 |
| CTCCACGA | -0.106 |
| CAATCCAA | -0.00834 |
| AGGAACAG | -0.251 |
| AATAAAAG | 0.0254 |
| GGCAAGAC | 0.123 |
| CGCGCAGC | 0.305 |
| AGATCATA | 0.00369 |
| CTACTGCC | 0.00432 |
| CGAGGCGC | 0.289 |

Study 3
Target: RNA binding protein fox-1 homolog 2, RRM domain, GST-SBP tag (RBFOX2, Homo sapiens, UniProt O43251-10, residues 100-194)
Technique: RNA Bind-n-Seq
Molecule type: RNA
Sample: in vitro
Concentration: 365 nM
Setting: natural RNA segment, single round, ends assumed
Baseline: no-protein control
Reading: higher = stronger binding
Target sequence (chain): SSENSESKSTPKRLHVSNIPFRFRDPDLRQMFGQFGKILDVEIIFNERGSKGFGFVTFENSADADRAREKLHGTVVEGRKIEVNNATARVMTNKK
| Strand | RBNS enrichment (R) |
| --- | --- |
| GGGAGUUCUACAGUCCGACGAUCGCAGACCCCAGGACUGCUGGCAGAUUAGUUGCCUGCCAGGAGGAAUUACUUUCCUUGAUCAAAAAAAUUAACACUGGGGAAGGCUGGAAUCACUUGAGGGGACUAUAAUGUGGAAUUCUCGGGUGCCAA | 0.425 |
| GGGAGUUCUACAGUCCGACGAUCUAGCUGGGAAAACACUAGAGCUGCAGGUACCAGCCACUCGGCCCCAGGGGGUUAUGGCCACAGAGGGAUAGGCACAGUCUCCACCACCCUGGAGCCAAGGGUCUUUCACAUGGAAUUCUCGGGUGCCAA | 0.569 |
| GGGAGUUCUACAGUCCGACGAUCGUGUGAUAGAGCCUUUGAUCUUCAGGAUGCACGGUUUCUGUUCUGCCCCCUCAGGGAUGUGGGAAUCUCCCAGACUUGUUUCCUGUGCCCAUCAUCUCUGCCUUUGAGUGUGGAAUUCUCGGGUGCCAA | 0.278 |
| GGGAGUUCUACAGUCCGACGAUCGAACCAAGCGUUUCUGUGGGAUUGAGACUGGUACGUGUACGAUGAACCUGCUGCUUUGUUUUCUGAGAAGAGGUUUGAAGACAUUUUAUUAACAGCUUAAUUUUUCUCUUUGGAAUUCUCGGGUGCCAA | 0.414 |
| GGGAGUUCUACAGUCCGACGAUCGUUACUCUAGGUAGUUGGAUCCCUUGAUGGUGGGGACUGUCUUUACUAAAGCUACAUCAGGCCUACUAAGCAGGAGCUGGCCUGUUGCCUACCACCCCUAGUAAGCAGGGUGGAAUUCUCGGGUGCCAA | 0.569 |
| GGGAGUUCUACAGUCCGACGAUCUUUUGACCAAGUGUAAAAAUAGCUGGCCUUUUCCUUGUGAUUGGUCUUUAUUAGUCUUUUUAAUGCCUCUAACCCUGUGGAAGCUGUCUGCACGCAGUAUCCCACUGUAGUGGAAUUCUCGGGUGCCAA | 0.47 |
| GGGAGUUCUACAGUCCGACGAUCCACAUUCUUUGAUUUGACAUUGAUGUCAUCUUACAGGGCUGCGCUUGCUGGGCAUGCUUUUAAGUCUGUGAGAUCAUUUUGCUUCAUUAAGUUGACCAUUCUUUUUGUUUUGGAAUUCUCGGGUGCCAA | 1.46 |
| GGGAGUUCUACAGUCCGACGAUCUGACAGUCCCCCAGAAACUUGGUGUGUCCUGGGCUGGACUGACACCCAGAAAGCUUACCUGCGAGCUUGGGGUUUGGCUUGAGUUCUCUUUUCCUUGAUUUCUCAGUAGGUGGAAUUCUCGGGUGCCAA | 0.542 |
| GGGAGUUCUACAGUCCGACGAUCGAUACUGUCCCCAGGAGCACCCUCCCUGCCCGUCUUGUCCCUCUGCCCCUCCCACCUGCACAUGUCACACUGACCACAUCUGUAGACAUCUUGAGUUGUAGCUGCAGACGUGGAAUUCUCGGGUGCCAA | 2.04 |
| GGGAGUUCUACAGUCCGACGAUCAAGAAAUAGCCAACUAGUUAAAAUGUAUGAAAAGAAAACUUUCCCCUGCUGUAUUUGUUGUGUAACAUAAAUAAGCCUUCUGAGAAGCAGGGUGAAUAAAGUUUAGGGAGUGGAAUUCUCGGGUGCCAA | 0.514 |
| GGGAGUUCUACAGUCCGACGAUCUCGUCUCUUACAUACUCUCAUCUUCUCCCCCGCUCCCUUCCACUCCAAGGAGCGAGGAGGGCAAGCGGCCUCCCAGCUCCCUGGUACCUCGAGGCACCAUUCCAGCCAGGUGGAAUUCUCGGGUGCCAA | 0.607 |
| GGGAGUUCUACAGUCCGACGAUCUUAGACAGUGCACAUGCUGUUAGGGCUGUCACUAGGGAGUGGCCUUCAUGGAGGGUGGUAACAGCACCUCAGUCCAGCCAAAAUGUUUAGAAACACUCAGUCUCUGGUCCUGGAAUUCUCGGGUGCCAA | 0.811 |

Study 4
Target: Interferon regulatory factor 7, full length, phosphomimetic (IRF7, Homo sapiens, UniProt Q92985, residues 1-503, S101K/S471D/S472D/S475D/S476D/S477D/S483D/S484D/S487D)
UniProt Q92985, sequence (whole entry, unmodified, looked up): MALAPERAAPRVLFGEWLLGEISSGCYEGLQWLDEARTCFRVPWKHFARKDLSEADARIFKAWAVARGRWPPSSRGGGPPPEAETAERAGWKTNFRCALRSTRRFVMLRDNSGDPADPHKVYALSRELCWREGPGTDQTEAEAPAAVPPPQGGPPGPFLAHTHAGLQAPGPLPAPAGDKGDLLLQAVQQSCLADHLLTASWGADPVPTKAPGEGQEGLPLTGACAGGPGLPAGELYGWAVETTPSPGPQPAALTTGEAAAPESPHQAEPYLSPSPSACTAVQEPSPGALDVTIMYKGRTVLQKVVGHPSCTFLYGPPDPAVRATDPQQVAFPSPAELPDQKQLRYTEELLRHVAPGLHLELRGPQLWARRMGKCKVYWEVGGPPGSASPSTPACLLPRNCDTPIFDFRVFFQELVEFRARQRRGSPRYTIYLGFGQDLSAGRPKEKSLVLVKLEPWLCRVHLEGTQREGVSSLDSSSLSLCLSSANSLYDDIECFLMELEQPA
Technique: protein-binding microarray
Molecule type: double-stranded DNA, one strand shown
Sample: in vitro
Concentration: 250 nM
Setting: 60-bp whole probe
Together with: salmon DNA 0.4 mg/ml
Baseline: random background probes
Reading: higher = stronger binding
Constant ends, left off below: GCCTAGCAC … GTCTTGATTCGCTTGACGCTGCTG
| Strand | log fluorescence |
| --- | --- |
| GACGTTTTCAGTCTCGAGACGTGCTAG | 1.17 z-score |
| TCATTGTTGTTTTTTGGACTGTGCTAG | 0.877 z-score |
| GACGAACCGAGTATCGAGACGTGCTAG | 0.695 z-score |
| TTAGATTTCAGTATCGGTTAGTGCTAG | 1.28 z-score |
| GACGGTTTCGGGAATCGGGACGTGCTA | 3.2 z-score |
| GACGGACTGCTTCTCCTGAAGTGCTAG | -0.179 z-score |
| TCATAGATGCCTTTCTCACTGTGCTAG | -0.194 z-score |
| TCATATTGCTTTCTCTTACTGTGCTAG | 1.15 z-score |
| TCAGGACTGGGTCTCGGTTAGTGCTAG | 0.771 z-score |
| GACGAACTCAGTATCGAGACGTGCTAG | 0.102 z-score |
| TTAAGCCCACTATCTAGCCCGTGCTAG | 0.0386 z-score |
| CTGCTTGAAACTCTTACCCCGTGCTAG | -0.125 z-score |
| TTAGATTCCAGTCTCGATTAGTGCTAG | 3.39 z-score |
| GACGATCTCAGTATCGAGTCGTGCTAG | 0.716 z-score |
| GACGGTATCGGGACTGGCGACGTGCTA | -0.367 z-score |
| GACGATTTCAGTTTCGAGCCGTGCTAG | 2.42 z-score |
| GACGGTTCCCTTTTCCTTACGTGCTAG | 2.98 z-score |
| GACGGTATACTTATCCTGACGTGCTAG | -0.169 z-score |
| GACGAACTGGGGACTGGAAACGTGCTA | -0.489 z-score |
| TCATTTATTTATTTTTAACTGTGCTAG | 1.12 z-score |
| TTAATGTGTTCTTGGATTCGGTGCTAG | 0.497 z-score |
| TCAGGTTTGAGTCTTCTACTGTGCTAG | -0.0823 z-score |
| GACTGTATCGACTTTCGGGACGTGCTA | 0.293 z-score |
| TTAGAACTGAGTTTCGGTTAGTGCTAG | 7.79 z-score |
| TGTCCTGTCTACATGGGTGTGTGCTAG | 0.406 z-score |

A few entries again (study 4):
| Strand | log fluorescence |
| --- | --- |
| GACGAACTCAGTATCGAGACGTGCTAG | 0.102 z-score |
| TTAAGCCCACTATCTAGCCCGTGCTAG | 0.0386 z-score |
| CTGCTTGAAACTCTTACCCCGTGCTAG | -0.125 z-score |
| TTAGATTCCAGTCTCGATTAGTGCTAG | 3.39 z-score |
| GACGATCTCAGTATCGAGTCGTGCTAG | 0.716 z-score |
| GACGGTATCGGGACTGGCGACGTGCTA | -0.367 z-score |
| GACGATTTCAGTTTCGAGCCGTGCTAG | 2.42 z-score |
| GACGGTTCCCTTTTCCTTACGTGCTAG | 2.98 z-score |
| GACGGTATACTTATCCTGACGTGCTAG | -0.169 z-score |
| GACGAACTGGGGACTGGAAACGTGCTA | -0.489 z-score |
| TCATTTATTTATTTTTAACTGTGCTAG | 1.12 z-score |
| TTAATGTGTTCTTGGATTCGGTGCTAG | 0.497 z-score |
